# Results gathered from unrelated publications.
# Parts stem from different laboratories: compare values within a part only. Substitutions count along the parent as printed.

# Series 1
# Target: RNA binding protein fox-1 homolog 2, RRM domain, GST-SBP tag (RBFOX2, Homo sapiens, UniProt O43251-10, residues 100-194)
# Method: RNA Bind-n-Seq
# Molecule type: RNA
# Sample: in vitro
# Tested at: 365 nM
# Notes: natural RNA segment, single round, ends assumed
# Reference: no-protein control
# Direction: higher = stronger binding
# Constant ends, left off below: GGGAGUUCUACAGUCCGACGAUC … UGGAAUUCUCGGGUGCCAA
# Target sequence (chain): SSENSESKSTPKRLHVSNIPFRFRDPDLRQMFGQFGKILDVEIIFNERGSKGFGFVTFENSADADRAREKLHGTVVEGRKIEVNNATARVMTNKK
Strand,RBNS enrichment (R)
CUGGAUUGGAGAUUAUUCUUGGUUAUGUUUUGGAAUCAGUCCUUUAUCUUAGUGUGCACUUGAUUGUGAGUUUUAAGAUUAUGGUUUUAGGAUUUCUUUUAUUUUUUGUC,1.52
ACCAUUGCAAAGAACGGGAGAAAUAGUCUAAAAAGGUGGGGCUUUGGCAUUCCUACCCUACAUCCUAUUUACCAGCAUACAUCAAACUGCUGCUGAUUUGAUUCCUCAAG,0.626
GAAAAAAAACAAAAGUCUUUGUAAUUUUGCUUAAAUUUGCCAGACACAGAUUUAGAAAUACAUUCUCACUGUCCAAAAUCAGCUUAAACACUGGCUCUGGCGAUGAGUCA,0.463
AGUCUGCCGCUAAUUAAUCUUAUUUAUUGCAGCUUAUAAAUUGUGCAAUCUCUAUUUCAUUAUCCUGUAAGGAAUAAAUAAGACAUUCAAUAUUGACCUAACUAACUUGA,0.331
CCAGUGUAAUGAAUGUUUGGAAAAAACUGGAGUUACAGGAAAAUGAAAUCUGACUAUCUGCUAGUUGCCAAAACCCAGAAACAUUCCUGUGUAAUGGUUAGUUGGGAAAG,0.506
UUUUAGGUUAUUAAGGUAACUGCUAAUGAAGGAUUUUAAAAAGUGUCCUCAAAAAGGACUUAGCCCCGGGAGUUGUUUAUAAAAUUUCCCCCACUUGUAUACAGUGUGCA,4.47
CAAUAACAGAAACACUCCCAGGGACUCUGGGGAGAGGCUGAGGACAAAUACCUGCUGUCACUCCAGAGACAUUUUUUUUAGCAAUAAAAUUGAGUGUCAACUAUUUAAUC,0.384
GGCAUGGAGCCCUGCCCUGAGUGUCUGUCCCUCUUCAGCCAAGCCCAAGUCUCCUAGACCCCCAGGGAGCCAGUGAACUGUCACCUUCUCUUCAUCACAGAAUGAGUAAA,0.378
UGUGAGCUAAGGCUGAAGAGACCUUGCCUGUGGGAGCUGGGGUGGUACCUGCCCCAACAGCCCCCCAUCAUCUGAUUUUGGGUGUGACCCCUCGAGUGUGCAUGCCACCC,2.21
GACCCUGUAUGAAUAGUACCAAAGCAUUACCGCAUGGUAGAGAACACACUCGAUUAAAAAUGUUAAGCUAUCUGAAAAAUAAAAUGUGCAAGUCUUCAGGAUGGCACAAA,2.39
AUGAUGCUCCCCUUAAUUGUCACACUGAAAUUAUGUAGUAAAUCAGAAAAUACCUGAAAAGCAACUUUAUUGCUUCAAUCUGGAUAUAAGUAGUUAUUUAUAAAUAGUUA,0.423
GUAAAGUUGCUGUUGAUCCAAAUAUUUUCAAGCCAUGUAAUCCAUUGGUUUUGUGGGCAGUUUAAUAAACCUGAACCUUUGUGUGUUUUCUAAUUGUACCUGAGUUGACC,0.672

# Series 2
# Target: Histone acetyltransferase KAT6A, winged helix 1, GST fusion (KAT6A, Homo sapiens, UniProt Q92794, residues 1-85)
# Method: protein binding microarray
# Molecule type: double-stranded DNA, one strand shown
# Sample: in vitro
# Tested at: not given
# Notes: 8-mer, flanks averaged, mean of 2 arrays, mostly near background
# Reference: not given
# Direction: higher = stronger binding
# Construct (chain): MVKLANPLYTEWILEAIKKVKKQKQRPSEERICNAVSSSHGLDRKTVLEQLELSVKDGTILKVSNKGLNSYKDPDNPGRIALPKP
Strand,E-score
ATATATGG,-0.0825
ACTGTGAA,-0.0601
AAATGACA,-0.209
ACAGACAT,-0.0679
GTGCTAGA,-0.127
GATGGCCA,-0.0322
ATCGGTCG,0.137
GAAGGTAA,-0.0191
GTATAGTA,0.13
ACAGGGAG,-0.0542
AGAAAGTA,-0.133
ATGAATAC,0.028
AAGAGAGT,-0.0815
CGGCGACG,0.424
GCAGGGCA,-0.075
GCGCAGAA,0.152
CGGCACGA,0.182
TATCGACA,0.105
AAGTGTCA,-0.321
AGTACTGG,-0.133
CTTCAATC,-0.0492
GTGGTTGA,-0.117

# Series 3
# Target: FOSB, bZIP domain (human)
# Method: DHFR protein complementation
# Sample: yeast
# Notes: single substitutions, most at no-binding floor
# Reference: wild-type JUN-FOS pair
# Direction: higher = stronger binding
# Starting sequence: JUN, bZIP domain (human); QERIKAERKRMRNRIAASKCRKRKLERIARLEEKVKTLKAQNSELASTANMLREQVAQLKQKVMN; partner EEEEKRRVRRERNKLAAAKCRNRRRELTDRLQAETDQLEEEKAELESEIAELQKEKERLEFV
Variant,binding fitness [natural log]
A46V,-0.222
N42P,-1.14
R30P,-0.24
A57L,-0.313
K36D,-0.185
S47K,0.114
M51H,-0.122
R53V,-0.828
E44D,-0.186
T37S,-0.0935
A40G,-0.265

# Series 4
# Target: Centromere-binding protein 1, full length, N-terminal tag (CBF1, Saccharomyces cerevisiae, UniProt P17106, residues 1-351)
# Sequence of UniProt P17106 (whole entry, looked up): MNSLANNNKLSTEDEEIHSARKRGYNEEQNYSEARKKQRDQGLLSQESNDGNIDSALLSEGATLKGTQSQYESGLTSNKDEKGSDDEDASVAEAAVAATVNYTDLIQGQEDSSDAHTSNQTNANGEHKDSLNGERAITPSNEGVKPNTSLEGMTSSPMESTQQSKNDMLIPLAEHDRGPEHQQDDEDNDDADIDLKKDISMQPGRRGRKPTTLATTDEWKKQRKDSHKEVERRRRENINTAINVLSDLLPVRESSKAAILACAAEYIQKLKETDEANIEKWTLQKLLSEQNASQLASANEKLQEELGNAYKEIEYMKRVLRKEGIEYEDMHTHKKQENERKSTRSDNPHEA
# Method: protein-binding microarray
# Molecule type: double-stranded DNA, one strand shown
# Sample: in vitro
# Tested at: 0.8 µM
# Notes: whole 60-bp probe, no competitor
# Direction: higher = stronger binding
# Constant ends, left off below: … GTCTTGATTCGCTTGACGCTGCTG
Strand,fluorescence intensity
GAATCATTAGCGCCTCATGTGAGCAGGCCATTGTAG,637 a.u.
GAATTTGCCAATAATCCTCACATGGTGGAGCTATAG,667 a.u.
CTAATGAGATAGATACATGCGTGGGTCAATTGCTTC,537 a.u.
CTAATACCTCATTTCCACGATGGTAATAGACGATTC,499 a.u.
CTAAGCTGGAGCTATCTGCTGATTAGTTTTACTTTC,506 a.u.
CTAACACTAACATGTGTCGTGACCAATGTGCAGTTC,1730 a.u.
CTACATAGTAGTATTCATGTCACTAGCACATTATTC,593 a.u.
CTAAAAGTAATACGCCACATGAAGACTAACGACTTC,540 a.u.
CTAACGTTGCTCTTGCACGTGTATTTCGCTGCTTTC,3580 a.u.
CTATATTTAGGTATTCTCCTGATTGTTTTCACTTTC,543 a.u.
GAAATATTTTTGCACCACGTAGAACTCAGAAGTTAG,576 a.u.
CCTAACTACTATACGCACGTGCCATAGCTTCGTACA,11500 a.u.
CTAACGAGAAGGACAAACATCAGGGACCCATACTTC,498 a.u.
CTATCGTTTGTAGCCGACGTGCTTCATTTATCATTC,574 a.u.
GAACTTCGCTCTTGCTTCGTCACCTGCCCCGAATAG,3050 a.u.
GAATGTAATTATCAACACGTGCATTACCCAGCGTAG,9190 a.u.
TGTACGAAGCTATATCAGACATCTATAGTAGTTAGG,535 a.u.
CTAGCATCTGCAATGTGCGTGATTTCTCCGTTATTC,584 a.u.

# Series 5
# Target: Interferon regulatory factor 7, full length, phosphomimetic (IRF7, Homo sapiens, UniProt Q92985, residues 1-503, S471D/S472D/S475D/S476D/S477D/S483D/S484D/S487D)
# Sequence of UniProt Q92985 (whole entry, unmodified, looked up): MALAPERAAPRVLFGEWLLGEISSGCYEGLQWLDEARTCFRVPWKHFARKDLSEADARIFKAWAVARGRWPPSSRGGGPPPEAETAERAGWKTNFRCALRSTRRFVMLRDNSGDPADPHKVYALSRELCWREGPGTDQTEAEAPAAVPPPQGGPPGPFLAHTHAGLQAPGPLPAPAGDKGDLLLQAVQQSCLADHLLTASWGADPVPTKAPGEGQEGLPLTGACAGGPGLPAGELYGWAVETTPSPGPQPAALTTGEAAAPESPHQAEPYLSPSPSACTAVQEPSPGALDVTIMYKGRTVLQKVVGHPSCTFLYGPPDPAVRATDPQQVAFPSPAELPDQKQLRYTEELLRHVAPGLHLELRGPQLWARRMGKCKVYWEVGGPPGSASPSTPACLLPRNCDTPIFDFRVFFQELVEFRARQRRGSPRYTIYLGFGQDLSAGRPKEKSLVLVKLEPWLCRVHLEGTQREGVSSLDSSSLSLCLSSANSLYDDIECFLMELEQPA
# Method: protein-binding microarray
# Molecule type: double-stranded DNA, one strand shown
# Sample: in vitro
# Tested at: 2200 nM top
# Notes: 60-bp whole probe
# Together with: salmon DNA 0.4 mg/ml
# Reference: random background probes
# Direction: higher = stronger binding
# Constant ends, left off below: GCCTAGCAC … GTCTTGATTCGCTTGACGCTGCTG
Strand,fitted relative affinity [z-score]
TTCGGACTGGACTATCGGTTAGTGCTA,0.0453
GATCCTTCCCCTCTAGGTTCGTGCTAG,1.92
TTAATGTGTTCTTGGATTCGGTGCTAG,0.746
TTAGGTCCCGGTCTCGGTTAGTGCTAG,0.432
TCAACTTTAACTTATTCTACTGTGCTA,0.417
GCCGGTCTCCTACTGCTGACGTGCTAG,0.472
GACGGTCTCCTTTTCCTGCCGTGCTAG,1.35
TTAGGCTTCGACTTTCGGTTAGTGCTA,5.33
TCAACTCTTCTTTTGCTACTGTGCTAG,1.29
GACGGTTTCGGTTCCGTGACGTGCTAG,11.4
GACGGTATCGGTTTCGAGACGTGCTAG,3.32
GACGGACTGGGTATCGTGACGTGCTAG,-0.343
TTAGGTCTGGACTTTCGGTTAGTGCTA,4.87
TATGAAATGGAAGTTTAGGGGTGCTAG,-0.393
TCATCCCTTTCTCTCTGACTGTGCTAG,2.81
GACGGACTGGCCACTGGGGACGTGCTA,-1.26
TCAGGTTTCGGGTTTCGGTTAGTGCTA,11.2
GACGGACTGGGGCATCGGGACGTGCTA,-1.16
TTAGGTTTCGGGACTGAGTTAGTGCTA,2.55
GACGATATCAGTATCAAGACGTGCTAG,0.168
TTAGGTTTGGACACTGGGTTAGTGCTA,0.11
TTAGATTTCAGTAGCGATTAGTGCTAG,-0.371
AATTCTTTGCTCATTTTTCAGGTGCTA,0.834
TTGCTTCCCAATTCTCTTTTCGTGCTA,2.49
TTACTTCCCAATTGTCTTTTCGTGCTA,3.11
